Assay results gathered from unrelated publications.
Several values in a cell are separate wells, animals, samples, runs or records. ± marks the error that the study gave.
Sequence of UniProt P47775 (whole entry, looked up): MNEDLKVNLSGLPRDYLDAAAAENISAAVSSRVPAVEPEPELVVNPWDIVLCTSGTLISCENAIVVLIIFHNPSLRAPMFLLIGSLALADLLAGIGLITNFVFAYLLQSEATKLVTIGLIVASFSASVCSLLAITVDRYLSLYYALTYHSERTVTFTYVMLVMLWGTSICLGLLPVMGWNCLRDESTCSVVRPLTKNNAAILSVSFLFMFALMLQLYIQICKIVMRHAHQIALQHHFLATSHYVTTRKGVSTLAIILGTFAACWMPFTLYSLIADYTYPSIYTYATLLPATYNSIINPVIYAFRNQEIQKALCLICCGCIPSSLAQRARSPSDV
Sequence of UniProt Q15102 (whole entry, looked up): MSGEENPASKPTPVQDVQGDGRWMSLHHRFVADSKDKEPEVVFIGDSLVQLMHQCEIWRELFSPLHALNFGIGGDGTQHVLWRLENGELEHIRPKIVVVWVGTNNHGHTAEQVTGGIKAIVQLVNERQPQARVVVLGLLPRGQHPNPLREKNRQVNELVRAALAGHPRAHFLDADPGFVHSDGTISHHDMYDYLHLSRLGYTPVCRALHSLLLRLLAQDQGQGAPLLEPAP
Sequence of UniProt P04629 (whole entry, looked up): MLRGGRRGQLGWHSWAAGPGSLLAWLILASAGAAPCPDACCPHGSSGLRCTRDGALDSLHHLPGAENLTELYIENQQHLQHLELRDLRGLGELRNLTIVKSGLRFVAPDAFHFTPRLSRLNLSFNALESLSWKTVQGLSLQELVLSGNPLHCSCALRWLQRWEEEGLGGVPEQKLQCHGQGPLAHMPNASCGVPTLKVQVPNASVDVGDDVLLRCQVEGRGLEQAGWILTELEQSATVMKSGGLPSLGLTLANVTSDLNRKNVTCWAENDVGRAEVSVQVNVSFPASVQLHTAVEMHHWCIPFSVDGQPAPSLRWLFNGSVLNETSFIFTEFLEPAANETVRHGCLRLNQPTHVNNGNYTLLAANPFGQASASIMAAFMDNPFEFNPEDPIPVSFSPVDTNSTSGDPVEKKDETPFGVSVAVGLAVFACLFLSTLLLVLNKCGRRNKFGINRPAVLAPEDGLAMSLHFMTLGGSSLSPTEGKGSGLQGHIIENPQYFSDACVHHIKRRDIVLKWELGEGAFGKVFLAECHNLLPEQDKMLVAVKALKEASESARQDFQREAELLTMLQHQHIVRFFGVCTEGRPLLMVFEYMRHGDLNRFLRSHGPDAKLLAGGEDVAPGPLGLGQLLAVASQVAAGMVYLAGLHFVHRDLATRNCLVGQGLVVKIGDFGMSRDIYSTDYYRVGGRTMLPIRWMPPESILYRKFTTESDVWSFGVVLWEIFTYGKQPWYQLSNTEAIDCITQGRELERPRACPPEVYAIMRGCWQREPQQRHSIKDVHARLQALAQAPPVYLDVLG
Sequence of UniProt P25021 (whole entry, looked up): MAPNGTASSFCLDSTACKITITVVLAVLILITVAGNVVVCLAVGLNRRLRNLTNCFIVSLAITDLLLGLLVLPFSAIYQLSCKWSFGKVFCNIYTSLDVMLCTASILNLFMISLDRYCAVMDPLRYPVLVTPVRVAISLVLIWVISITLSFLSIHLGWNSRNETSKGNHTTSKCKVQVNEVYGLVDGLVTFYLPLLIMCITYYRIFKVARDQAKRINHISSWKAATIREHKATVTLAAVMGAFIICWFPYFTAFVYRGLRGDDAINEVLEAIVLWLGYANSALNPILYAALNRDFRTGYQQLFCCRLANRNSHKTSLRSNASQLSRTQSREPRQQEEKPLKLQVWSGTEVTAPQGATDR

C=CCNc1c(O)cc2c(O)c1C[C@@H](C)C[C@H](OC)[C@H](O)[C@@H](C)/C=C(\C)[C@H](OC(N)=O)[C@@H](OC)/C=C\C=C(/C)C(=O)N2
patients with stable disease (RECIST v1.0; human soft tissue sarcoma; concentration not given, stable 12 weeks): 18%

CNC(=O)c1c(C)oc2cc(Oc3ccnc4cc(OCCN5CCOCC5)ccc34)ccc12
disease control rate (response or stable disease ≥4 cycles, RECIST 1.0; patients with advanced solid tumours; dose not given, once daily dosing): 27%

Cc1nc(Nc2ccc(CC(=O)O)cc2)nc(Nc2ccc(F)c(C(F)(F)F)c2)c1C
protein level (measured: UCP1; mice, chronic ethanol plus binge, brown adipose tissue; intraperitoneal, 0.3 mg/kg daily, ethanol diet 4 weeks, dosed last two; baseline: vehicle): increased

CNC(=O)CC1C(=O)N(C2CCN(C3CCC(C(C)C)CC3)CC2)c2ccccc21 (stereo not shown)
heart rate (conscious Sprague-Dawley rat; intravenous bolus, 100 nmol/kg): decreased

O=C(O)C1=CC(=C(c2ccc(O)c(C(=O)O)c2)c2ccc(O)c(C(=O)O)c2)C=CC1=O
CD8+/CD4+ ratio (flow cytometry; C57BL/6J mouse MC-38 tumour, tumour-infiltrating lymphocytes; peritumoral, dose not given, 2 cycles; baseline: CD8+ over CD4+): increased

CN(CC[C@H](N)CC(=O)N[C@H]1C=C[C@H](n2ccc(N)nc2=O)O[C@@H]1C(=O)O)C(=N)N
IC50 (translation; rabbit reticulocyte lysate): 0.007 ± 0.001 µM

Cc1cn(-c2cc(NC(=O)c3ccc(C)c(Nc4nccc(-c5cccnc5)n4)c3)cc(C(F)(F)F)c2)cn1
MMSE score (Alzheimer's disease patients; 300 mg, 12 months, group mean; direction not given): 16.2 ± 4.6

NNc1ccccc1
normalised absorbance (hydrazine ligation kinetics, absorbance; concentration not given, 10 s, added: 2-formylphenylboronic acid): 0.77

O=C1C2CC3CC(C2)CC1C3
IC50 (pH gradient; Escherichia coli inverted membrane vesicles): > 1000 µM

COc1cc(CCC[P+](c2ccccc2)(c2ccccc2)c2ccccc2)c(OC)c2c1OCO2.[I-]
GI50 (OVCAR-8; SRB): -5.63 log M

C[C@]1(CO)Cc2ncn(-c3ccc(C#N)c(Cl)c3)c2C(=O)O1
urinary potassium excretion 0-24 h (Chinese subjects; 3 mg single dose): 32 mmol

O=S(=O)([O-])C(F)(F)C(F)(F)C(F)(F)C(F)(F)C(F)(F)C(F)(F)C(F)(F)C(F)(F)F.[K+]
blood alcohol concentration (male C57BL/6J mice, EtOH-fed, blood; dose not given, added: binge EtOH 5 g/kg; baseline: efavirenz): decreased

O=C(O)C[C@H](NC(=O)[C@H](CC(=O)O)NC(=O)[C@H](CC(=O)O)NC(=O)[C@H](CC(=O)O)NC(=O)[C@H](CC(=O)O)NC(=O)[C@H](CC(=O)O)NC(=O)[C@H](CC(=O)O)NC(=O)[C@H](CC(=O)O)NC(=O)[C@H](CC(=O)O)NC(=O)[C@H](CC(=O)O)NC(=O)[C@H](CC(=O)O)NC(=O)[C@H](CCCCNC(=O)c1ccc(C(=O)NCCOCCOB2BBBBBB3BBBB3B2)cc1)NC(=O)CN1CCN(CC(=O)O)CCN(CC(=O)O)CCN(CC(=O)O)CC1)C(=O)O [gallium-67 labelled]
tissue uptake (ddY male mice, muscle; intravenous, 37 kBq, 1 h): 0.52 %ID/g

CN1CCN(c2cc(-c3ccncc3)c(-c3ccc4ccccc4c3)nn2)CC1
inhibition (HRH2 (Homo sapiens, UniProt P25021); antagonist, FLIPR; 10 µM): -5%

CCCCC1(CCCC)CN(c2ccccc2)c2cc(SC)c(OCC(=O)N[C@@H](C(=O)NCC(=O)O)c3ccccc3)cc2S(=O)(=O)C1
serum HDL-C (measured: HDL cholesterol; human, serum; 2.5 mg once daily, day 5): 55.2 mg/dL

CC[C@@H](C)[C@@H](NC(=O)[C@@H](Cc1ccc(O)cc1)NC(=O)[C@H]1CCCN1C(=O)[C@@H](CCCNC(=N)N)NC(=O)[C@H](N)Cc1c[nH]cn1)C(=O)N[C@H](C)C(=O)N[C@H](Cc1c[nH]cn1)C(=O)N[C@H](CCCNC(=N)N)C(=O)N[C@H](CCCCNC(=O)c1cccc(S(=O)(=O)F)c1)C(=O)N[C@H](Cc1ccc(O)cc1)C(=O)N[C@H](CO)C(=O)N[C@H](Cc1ccccc1)C(N)=O
IFN-γ+ CD4+ T cells (ex vivo flow cytometry; MC-38 tumour-bearing mice, tumour; 3.9 mg/kg; baseline: CD4+ T cells): 5.95% and 6.24% and 6.58% and 3.8%

O=C(c1ccc(Cl)cc1)N1CCN2C(=O)N(OC(=O)N3CCOc4ccccc43)C(=O)C2C1 (stereo not shown)
median protein ratio (Platelet-activating factor acetylhydrolase IB subunit alpha1 (Homo sapiens, UniProt Q15102); MS-based ABPP; SW-620 conditioned medium; 10 µM, 1 h, 37 °C; baseline: compound over DMSO, lower = more inhibition): 0.8

[131I-].[Na+]
indeterminate response (ATA response criteria; human, papillary thyroid cancer, nodal metastases; 3700 MBq): 18.6%

CN1CCN(S(=O)(=O)c2cc([N+](=O)[O-])ccc2N(CCOS(C)(=O)=O)CCOS(C)(=O)=O)CC1
event-free survival (NSG mice, sample CH PDX; intraperitoneal, 25 mg/kg weekly x3): > 367 days

C[C@@H](O)[C@@H](CO)NC(=O)[C@@H](CCCNC(=N)N)NC(=O)[C@@H]1CCCN1C(=O)[C@@H]1CSSC[C@H](NC(=O)[C@H](Cc2ccccc2)NC(=O)CN2CCN(CC(=O)O)CCN(CC(=O)O)CCN(CC(=O)O)CC2)C(=O)N[C@@H](Cc2ccc(O)cc2)C(=O)N[C@@H](Cc2ccccc2)C(=O)N[C@@H](CCC(N)=O)C(=O)N[C@@H](CC(N)=O)C(=O)N1 [gallium-68 labelled]
tissue uptake (Wistar rat, heart; intravenous, 8 MBq, 60 min, group mean): 0.24 %ID/g

C[C@H]1CN(c2n[nH]c3nc(N[C@H]4CC[C@H](NS(=O)(=O)CCC(F)(F)F)CC4)ncc23)CCO1
relative abundance (NTRK1 (Homo sapiens, UniProt P04629); inhibitor, Kinobeads competition profiling; 20 µM; baseline: vehicle): 1.14

C[C@H]1O[C@@H](O[C@H]2CC[C@@]3(C)[C@@H](CC[C@]4(C)[C@@H]3C=C[C@]35OC[C@@]6(CCC(C)(C)C[C@H]63)[C@@H](O)C[C@]54C)[C@]2(C)CO)[C@H](O)[C@@H](O[C@@H]2O[C@H](CO)[C@@H](O)[C@H](O)[C@H]2O)[C@H]1O
steatosis area (H&E staining; hepatic SIRT1 knockdown mice, no ethanol, liver; dose not given, AAV8-TBG-shRNA, high dose): 11.8% and 11.6% and 13.1% and 13.6% and 11.5% and 9.34%

CC[C@H](C)[C@@H]1NC(=O)[C@@H]2CCCN2C(=O)[C@H](CC(C)C)NC(=O)[C@H](CC(C)C)NC(=O)CNC(=O)[C@@H](NC(=O)[C@@H](NC(=O)[C@H](CC(=O)O)NC(=O)CNC(=O)[C@@H](NC(=O)[C@H](C)NC(=O)CNC(=O)[C@H](CCCCN)NC(=O)[C@H](CC(C)C)NC(=O)[C@H](CC(C)C)NC(=O)[C@H](CCCCN)NC(=O)CNC(=O)[C@@H](NC(=O)[C@@H](N)CC(C)C)C(C)C)C(C)C)C(C)C)CSSC[C@@H](C(=O)O)NC1=O
log2 fold change (RNA-seq, measured: Bdkrb2; mouse, traumatic brain injury model, frontal cortex and hippocampus; dose not given; baseline: TBI alone): -1.81

CC(C)C[C@H](NC(=O)C[C@H](O)[C@H](CC(C)C)NC(=O)[C@H](Cc1c[nH]cn1)NC(=O)CNC(=O)[C@@H](NC(=O)[C@H](C)NC(=O)[C@H](Cc1c[nH]c2ccccc12)NC(=O)[C@H](CCC(N)=O)NC(=O)[C@@H](Cc1ccccc1)NC(=O)CCNC(=O)CCSc1nnc(NCCC(=O)NCCC(=O)NCCCC[C@H](NC(=O)N[C@@H](CCC(=O)O)C(=O)O)C(=O)O)c2c1CCC1C(CC2)C1COC(=O)NCCNC(=O)CC[C@H](C(=O)O)N1CCN(CC(=O)O)CCN(CC(=O)O)CC1)C(C)C)C(N)=O (stereo partly shown) [gallium-68 labelled]
tissue uptake (athymic NMRI nude mice, 22Rv1 xenograft, tumour; intravenous, 2 h, added: bombesin 480 nmol co-injected): 1.34 %ID/g

CN1CC[C@@H](c2c(O)cc(O)c3c(=O)cc(-c4ccc(C(F)(F)F)cc4Cl)oc23)[C@@H]1CO
discontinuations unrelated to treatment (human, relapsed/refractory hematologic malignancies; oral, dose not given, of 9 patients discontinued): 6 cases

Clc1cc2c(cc1Cl)Oc1cc(Cl)c(Cl)cc1O2
mRNA level (RNA-Seq, measured: Ptgfr; female Sprague-Dawley rat, liver; 10 µg/kg; baseline: vehicle): 1.6 fold

Oc1ccc2c3c1O[C@H]1[C@@H](O)CC[C@@]4(O)[C@@H](C2)N(CC2CCC2)CC[C@]314
log2 fold change (G-protein coupled receptor 12 (GPR12, Homo sapiens, UniProt P47775); β-arrestin recruitment, TANGO luminescence, measured: GPR12; concentration not given; baseline: basal luminescence): -0.307

FC(F)(F)c1ccc2c(c1)[C@@H]1CNC[C@H]2C1
ethanol preference (intermittent two-bottle choice; Wistar rat, 20% ethanol drinking; subcutaneous, 10 mg/kg, 24 h; baseline: ethanol over total fluid intake): 29 ± 3%

CCCCC1CNC2CCc3ccc(OC)cc3C12.Cl (racemic)
mRNA level (RNA sequencing, measured: ribosomal protein genes; SAMP8 mice, hippocampus; intracerebroventricular, 1.0 µg/µL, 24 h; baseline: vehicle): increased

CC[C@H](C)[C@H](NC(=O)[C@H](Cc1ccccc1)NC(=O)[C@H](CCC(=O)O)NC(=O)[C@H](CCCNC(=N)N)NC(=O)[C@H](C)NC(=O)[C@H](C)NC(=O)[C@H](CCC(N)=O)NC(=O)[C@H](CCC(=O)O)NC(=O)[C@H](CCC(=O)O)NC(=O)[C@H](CC(C)C)NC(=O)[C@H](Cc1ccc(O)cc1)NC(=O)[C@H](CO)NC(=O)[C@H](CO)NC(=O)[C@@H](NC(=O)[C@H](CC(=O)O)NC(=O)[C@H](CO)NC(=O)[C@@H](NC(=O)[C@H](Cc1ccccc1)NC(=O)[C@@H](NC(=O)CNC(=O)[C@H](CCC(=O)O)NC(=O)[C@H](C)NC(=O)CCc1c[nH]cn1)[C@@H](C)O)[C@@H](C)O)C(C)C)C(=O)N[C@@H](C)C(=O)N[C@@H](Cc1c[nH]c2ccccc12)C(=O)N[C@@H](CC(C)C)C(=O)N[C@H](C(=O)N[C@@H](CCCNC(=N)N)C(=O)NCC(=O)N[C@@H](CCCNC(=N)N)C(=O)N[C@@H](CCCCNC(=O)COCCOCCNC(=O)COCCOCCNC(=O)CC[C@H](NC(=O)CCCCCCCCCCCCCCCCC(=O)O)C(=O)O)C(=O)NCC(=O)NCC(=O)N[C@@H](CO)C(=O)N[C@@H](CCCCNc1c(NCCCCCN(O)C(=O)CCC(=O)NCCCCCN(O)C(=O)CCC(=O)NCCCCCN(O)C(C)=O)c(=O)c1=O)C(=O)O)C(C)C [zirconium-89 labelled]
tissue uptake (rat, bone marrow; iv, 3 nmol/kg, 72 h, ex vivo): 0.49 %ID/g

COc1ccc2c(c1)CC[C@@H]1[C@@H]2CC[C@]2(C)[C@@H](NCCCCCCN3C(=O)C=CC3=O)CC[C@@H]12
inhibition (calcium response, decay phase; N2a, mouse; 1 µM, added: ATP 300 µM): 50%

Repeated from above:
CNC(=O)c1c(C)oc2cc(Oc3ccnc4cc(OCCN5CCOCC5)ccc34)ccc12
disease control rate (response or stable disease ≥4 cycles, RECIST 1.0; patients with advanced solid tumours; dose not given, once daily dosing): 27%

CC[C@H](C)[C@@H]1NC(=O)[C@@H]2CCCN2C(=O)[C@H](CC(C)C)NC(=O)[C@H](CC(C)C)NC(=O)CNC(=O)[C@@H](NC(=O)[C@@H](NC(=O)[C@H](CC(=O)O)NC(=O)CNC(=O)[C@@H](NC(=O)[C@H](C)NC(=O)CNC(=O)[C@H](CCCCN)NC(=O)[C@H](CC(C)C)NC(=O)[C@H](CC(C)C)NC(=O)[C@H](CCCCN)NC(=O)CNC(=O)[C@@H](NC(=O)[C@@H](N)CC(C)C)C(C)C)C(C)C)C(C)C)CSSC[C@@H](C(=O)O)NC1=O
log2 fold change (RNA-seq, measured: Bdkrb2; mouse, traumatic brain injury model, frontal cortex and hippocampus; dose not given; baseline: TBI alone): -1.81

CN1CCN(S(=O)(=O)c2cc([N+](=O)[O-])ccc2N(CCOS(C)(=O)=O)CCOS(C)(=O)=O)CC1
event-free survival (NSG mice, sample CH PDX; intraperitoneal, 25 mg/kg weekly x3): > 367 days
